Measured values of several laboratories.
Protocols differ between the studies behind these lines.
Organism: Acinetobacter baumannii

SMILES	assay	test system	setting	MIC
CC[C@H](C)[C@H](NC(=O)[C@@H](CCCNC(=N)N)NC(=O)[C@H](CCCNC(=N)N)NC(=O)[C@@H]1CCCN1C(=O)[C@@H]1CCCN1C(=O)[C@H](CCCNC(=N)N)NC(=O)[C@@H]1CCCN1C(=O)[C@H](CCCNC(=N)N)NC(=O)[C@@H]1CCCN1C(=O)[C@H](CC(C)C)NC(=O)[C@H](Cc1ccc(O)cc1)NC(=O)[C@@H]1CCCN1C(=O)[C@@H]1CCCN1C(=O)[C@H](CCCCN)NC(=O)[C@H](CC(=O)O)NC(=O)[C@@H](N)C(C)C)C(=O)N[C@@H](Cc1ccc(O)c([N+](=O)[O-])c1)C(=O)N[C@@H](CC(N)=O)C(=O)N[C@H](CCCNC(=N)N)C(N)=O	broth microdilution	DSM 30008	18 h, 37 °C, 25% MHB2	32 µg/mL
CCn1ccn(CC)c1=[Se]	broth microdilution	carbapenem-resistant	24 h	> 40 µM
CC(=CC(C)CCCCC(=O)O)C1OC2C=CC1OC(=O)C=CC=CC=CC1OC3CC1OC(C=CCC1OC(CC(O)C1C)C(O)C(O)C=CCCC=CC2)C3C (stereo not drawn)	microbial growth	DSM30008		> 20 µM
CCCCCCCC(=O)N[C@@H](CCN)C(=O)N[C@H](C(=O)N[C@@H](CCN)C(=O)N[C@H]1CCNC(=O)[C@H]([C@@H](C)O)NC(=O)[C@H](CCN)NC(=O)[C@H](CCN)NC(=O)[C@H](CC(C)C)NC(=O)[C@@H](Cc2ccccc2F)NC(=O)[C@H](CCN)NC1=O)[C@@H](C)O	broth microdilution	ATCC 19606, colistin-susceptible		0.06 to 0.125 µg/mL
CC[C@H](C)[C@H](NC(=O)[C@@H](CCCNC(=N)N)NC(=O)[C@H](CCCNC(=N)N)NC(=O)[C@@H](NC(=O)[C@H](Cc1c[nH]c2ccccc12)NC(=O)[C@H](CCCNC(=N)N)NC(=O)[C@@H]1CCCN1C(=O)[C@H](CCCNC(=N)N)NC(=O)[C@@H]1CCCN1C(=O)[C@H](CC(C)C)NC(=O)[C@H](Cc1ccc(O)cc1)NC(=O)[C@@H]1CCCN1C(=O)[C@@H]1CCCN1C(=O)[C@H](CCCCN)NC(=O)[C@H](CC(=O)O)NC(=O)[C@@H](N)C(C)C)C(C)C)C(=O)N[C@@H](Cc1ccc(O)cc1)C(=O)N[C@@H](CC(N)=O)C(=O)N[C@H](CCCNC(=N)N)C(N)=O	broth microdilution	DSM 30008	18 h, 37 °C, 25% MHB2	16 µg/mL
CCCCCCCC(=O)N[C@@H](CCN)C(=O)N[C@H](C(=O)N[C@@H](CCN)C(=O)N[C@H]1CCNC(=O)[C@H]([C@@H](C)O)NC(=O)[C@H](CCN)NC(=O)[C@H](CCN)NC(=O)[C@H](C)NC(=O)[C@@H](Cc2ccccc2)NC(=O)[C@H](CCN)NC1=O)[C@@H](C)O	CLSI broth microdilution	246-01-C.246, CAMHB	20 h, 37 °C	0.5 µg/mL
CN[C@H](CC(C)C)C(=O)N[C@H]1C(=O)N[C@@H](CC(N)=O)C(=O)N[C@H]2C(=O)N[C@H]3C(=O)N[C@H](C(=O)N[C@H](C(=O)NCc4cn(CC(=O)N[C@H](C(=O)N[C@@H](CCN)C(=O)N[C@H]5CCNC(=O)[C@H]([C@@H](C)O)NC(=O)[C@H](CCN)NC(=O)[C@H](CCN)NC(=O)[C@H](CC(C)C)NC(=O)[C@@H](CC(C)C)NC(=O)[C@H](CCN)NC5=O)[C@@H](C)O)nn4)c4cc(O)cc(O)c4-c4cc3ccc4O)[C@H](O)c3ccc(c(Cl)c3)Oc3cc2cc(c3O[C@@H]2O[C@H](CO)[C@@H](O)[C@H](O)[C@H]2O[C@H]2C[C@](C)(N)[C@H](O)[C@H](C)O2)Oc2ccc(cc2Cl)[C@H]1O	broth microdilution	BAA-747		13 µM
CC[C@H](C)[C@H](NC(=O)[C@H](CCCCN)NC(=O)[C@@H](NC(=O)[C@@H](NC(=O)[C@H](CC(C)C)NC(=O)[C@H](CCCNC(=N)N)NC(=O)[C@@H](NC(=O)[C@H](CC(C)C)NC(=O)[C@H](CCCNC(=N)N)NC(=O)CNC(=O)[C@H](Cc1ccccc1)NC(=O)[C@@H](N)CCCNC(=N)N)[C@@H](C)CC)[C@@H](C)CC)C(C)C)C(=O)N[C@@H](C)C(=O)N[C@@H](CCCNC(=N)N)C(=O)N[C@@H](CCCNC(=N)N)C(=O)N[C@@H](C)C(=O)N[C@@H](Cc1c[nH]cn1)C(=O)N[C@@H](CCCNC(=N)N)C(=O)N[C@@H](C)C(=O)N[C@@H](CCCNC(=N)N)C(=O)N[C@@H](CO)C(=O)N[C@@H](C)C(=O)N[C@H](C(=O)N[C@@H](CCCCN)C(=O)N[C@@H](C)C(=O)N[C@@H](C)C(=O)N[C@@H](CO)C(=O)N[C@@H](CC(N)=O)C(=O)N[C@H](C(=O)N[C@@H](C)C(=O)N[C@@H](C)C(=O)N[C@@H](CC(C)C)C(=O)N[C@@H](C)C(=O)N[C@@H](Cc1c[nH]cn1)C(=O)NCC(=O)N[C@@H](C)C(N)=O)C(C)C)C(C)C	bacterial growth, broth microdilution	cation-adjusted Mueller Hinton broth	18 h, 37 °C	≤ 0.064 µM
CCCCCCCC(=O)N[C@@H](CCN)C(=O)N[C@H](C(=O)N[C@@H](CCN)C(=O)N[C@H]1CCNC(=O)[C@H]([C@@H](C)O)NC(=O)[C@H](CCN)NC(=O)[C@H](CCN)NC(=O)[C@H](Cc2ccc(Cl)cc2)NC(=O)[C@@H](CC(C)C)NC(=O)[C@H](CCN)NC1=O)[C@@H](C)O	broth microdilution	colistin-resistant isolates		1 to 2 µg/mL
CC[C@H](C)[C@H](NC(=O)[C@H](CCCCN)NC(=O)[C@H](Cc1c[nH]c2ccccc12)NC(=O)[C@H](Cc1c[nH]c2ccccc12)NC(=O)[C@H](CCCCN)NC(=O)[C@H](CCCCN)NC(=O)[C@H](CCCCN)NC(=O)[C@H](Cc1c[nH]c2ccccc12)NC(=O)[C@H](CCCCN)NC(=O)[C@H](CCCCN)NC(=O)[C@H](Cc1c[nH]c2ccccc12)NC(=O)[C@H](CCCCN)NC(=O)[C@H](CCCCN)NC(=O)[C@@H](NC(=O)[C@@H](NC(=O)[C@H](CCCCN)NC(=O)[C@@H](N)CCCNC(=N)N)[C@@H](C)CC)[C@@H](C)CC)C(=O)N[C@@H](Cc1c[nH]c2ccccc12)C(=O)N[C@@H](Cc1c[nH]c2ccccc12)C(=O)N[C@@H](CCCCN)C(N)=O	broth microdilution	18		1.25 µg/mL
CC[C@H](C)[C@H](NC(=O)[C@@H](CCCNC(=N)N)NC(=O)[C@H](CCCNC(=N)N)NC(=O)[C@H](CO)NC(=O)[C@H](Cc1c[nH]c2ccccc12)NC(=O)[C@H](CCCNC(=N)N)NC(=O)[C@@H]1CCCN1C(=O)[C@H](CCCNC(=N)N)NC(=O)[C@@H]1CCCN1C(=O)[C@H](CC(C)C)NC(=O)[C@H](Cc1ccc(O)cc1)NC(=O)[C@@H]1CCCN1C(=O)[C@@H]1CCCN1C(=O)[C@H](CCCCN)NC(=O)[C@H](CC(=O)O)NC(=O)[C@@H](N)C(C)C)C(=O)N[C@@H](Cc1ccc(O)cc1)C(=O)N[C@@H](CC(N)=O)C(=O)N[C@H](CCCNC(=N)N)C(N)=O	broth microdilution	DSM 30008	18 h, 37 °C, 25% MHB2	32 µg/mL
CCCCCCCC(=O)N[C@@H](CCN)C(=O)N[C@@H](C)C(=O)N[C@@H](CCN)C(=O)N[C@H]1CCNC(=O)[C@H]([C@@H](C)O)NC(=O)[C@H](CCN)NC(=O)[C@H](CCN)NC(=O)[C@H](CC(C)C)NC(=O)[C@@H](Cc2ccccc2)NC(=O)[C@H](CCN)NC1=O	CLSI broth microdilution	5075, CAMHB	20 h, 37 °C	> 512 µg/mL
CC[C@H](C)[C@H](NC(=O)[C@@H](CCCNC(=N)N)NC(=O)[C@H](CCCNC(=N)N)NC(=O)[C@H](Cc1ccc(O)cc1)NC(=O)[C@H](Cc1c[nH]c2ccccc12)NC(=O)[C@H](CCCNC(=N)N)NC(=O)[C@@H]1CCCN1C(=O)[C@H](CCCNC(=N)N)NC(=O)[C@@H]1CCCN1C(=O)[C@H](CC(C)C)NC(=O)[C@H](Cc1ccc(O)cc1)NC(=O)[C@@H]1CCCN1C(=O)[C@@H]1CCCN1C(=O)[C@H](CCCCN)NC(=O)[C@H](CC(=O)O)NC(=O)[C@@H](N)C(C)C)C(=O)N[C@@H](Cc1ccc(O)cc1)C(=O)N[C@@H](CC(N)=O)C(=O)N[C@H](CCCNC(=N)N)C(N)=O	broth microdilution	DSM 30008	18 h, 37 °C, 25% MHB2	16 µg/mL
CN[C@@H]1[C@H](O)[C@H](NC)[C@H]2O[C@]3(O)[C@H](O[C@@H]2[C@H]1O)O[C@H](C)C[C@H]3NC(=O)Cc1ccccc1	microbial growth, broth dilution	ATCC19606		> 200 µg/mL
CCCCCCCC(=O)N[C@@H](CCN)C(=O)N[C@H](C(=O)N[C@@H](CCN)C(=O)N[C@H]1CCNC(=O)[C@H]([C@@H](C)O)NC(=O)[C@H](CCN)NC(=O)[C@H](CCN)NC(=O)[C@H](CC(C)C)NC(=O)[C@@H](Cc2ccccc2)NC(=O)[C@H](CCN)NC1=O)[C@@H](C)O	broth microdilution	colistin-resistant isolates		8 µg/mL
CCCC[C@H](NC(=O)[C@H](Cc1ccc(O)cc1)NC(=O)[C@@H]1CCCN1C(=O)[C@@H]1CCCN1C(=O)[C@H](CCCCN)NC(=O)[C@H](CC(=O)O)NC(=O)[C@@H](N)C(C)C)C(=O)N1CCC[C@H]1C(=O)N[C@@H](CCCNC(=N)N)C(=O)N1CCC[C@H]1C(=O)N[C@@H](CCCNC(=N)N)C(=O)N1CCC[C@H]1C(=O)N1CCC[C@H]1C(=O)N[C@@H](CCCNC(=N)N)C(=O)N[C@H](CCCNC(=N)N)C(=O)N[C@H](C(=O)N[C@@H](Cc1ccc(O)cc1)C(=O)N[C@@H](CC(N)=O)C(=O)N[C@H](CCCNC(=N)N)C(N)=O)[C@@H](C)CC	broth microdilution	DSM 30008	18 h, 37 °C, 25% MHB2	32 µg/mL
CCCCCCCC(=O)N[C@@H](CCN)C(=O)N[C@H](C(=O)N[C@@H](CCN)C(=O)N[C@H]1CCNC(=O)[C@H](C)NC(=O)[C@H](CCN)NC(=O)[C@H](CCN)NC(=O)[C@H](CC(C)C)NC(=O)[C@@H](Cc2ccccc2)NC(=O)[C@H](CCN)NC1=O)[C@@H](C)O	broth microdilution	ATCC 19606	20 h, 37 °C	1 µg/mL
CC[C@H](C)[C@H](N)C(=O)N[C@@H](CCCNC(=N)N)C(=O)N[C@H](C(=O)N[C@@H](Cc1c[nH]c2ccccc12)C(=O)N[C@@H](Cc1ccccc1)C(=O)N[C@H](C(=O)N[C@@H](CCCCN)C(=O)N[C@H](C(=O)N[C@@H](CCCNC(=N)N)C(=O)N[C@@H](CCCCN)C(=O)N[C@@H](CCSC)C(=O)N[C@@H](CCCCN)C(=O)N[C@@H](C)C(=O)N[C@H](C(=O)N[C@@H](Cc1ccc(O)cc1)C(=O)N[C@@H](Cc1c[nH]cn1)C(N)=O)[C@@H](C)CC)C(C)C)[C@@H](C)CC)C(C)C	broth dilution	ATCC 19606		6.3 µM

Repeated from above:
SMILES	assay	test system	setting	MIC
CC[C@H](C)[C@H](NC(=O)[C@@H](CCCNC(=N)N)NC(=O)[C@H](CCCNC(=N)N)NC(=O)[C@H](Cc1ccc(O)cc1)NC(=O)[C@H](Cc1c[nH]c2ccccc12)NC(=O)[C@H](CCCNC(=N)N)NC(=O)[C@@H]1CCCN1C(=O)[C@H](CCCNC(=N)N)NC(=O)[C@@H]1CCCN1C(=O)[C@H](CC(C)C)NC(=O)[C@H](Cc1ccc(O)cc1)NC(=O)[C@@H]1CCCN1C(=O)[C@@H]1CCCN1C(=O)[C@H](CCCCN)NC(=O)[C@H](CC(=O)O)NC(=O)[C@@H](N)C(C)C)C(=O)N[C@@H](Cc1ccc(O)cc1)C(=O)N[C@@H](CC(N)=O)C(=O)N[C@H](CCCNC(=N)N)C(N)=O	broth microdilution	DSM 30008	18 h, 37 °C, 25% MHB2	16 µg/mL
CCCC[C@H](NC(=O)[C@H](Cc1ccc(O)cc1)NC(=O)[C@@H]1CCCN1C(=O)[C@@H]1CCCN1C(=O)[C@H](CCCCN)NC(=O)[C@H](CC(=O)O)NC(=O)[C@@H](N)C(C)C)C(=O)N1CCC[C@H]1C(=O)N[C@@H](CCCNC(=N)N)C(=O)N1CCC[C@H]1C(=O)N[C@@H](CCCNC(=N)N)C(=O)N1CCC[C@H]1C(=O)N1CCC[C@H]1C(=O)N[C@@H](CCCNC(=N)N)C(=O)N[C@H](CCCNC(=N)N)C(=O)N[C@H](C(=O)N[C@@H](Cc1ccc(O)cc1)C(=O)N[C@@H](CC(N)=O)C(=O)N[C@H](CCCNC(=N)N)C(N)=O)[C@@H](C)CC	broth microdilution	DSM 30008	18 h, 37 °C, 25% MHB2	32 µg/mL
CC[C@H](C)[C@H](NC(=O)[C@H](CCCCN)NC(=O)[C@H](Cc1c[nH]c2ccccc12)NC(=O)[C@H](Cc1c[nH]c2ccccc12)NC(=O)[C@H](CCCCN)NC(=O)[C@H](CCCCN)NC(=O)[C@H](CCCCN)NC(=O)[C@H](Cc1c[nH]c2ccccc12)NC(=O)[C@H](CCCCN)NC(=O)[C@H](CCCCN)NC(=O)[C@H](Cc1c[nH]c2ccccc12)NC(=O)[C@H](CCCCN)NC(=O)[C@H](CCCCN)NC(=O)[C@@H](NC(=O)[C@@H](NC(=O)[C@H](CCCCN)NC(=O)[C@@H](N)CCCNC(=N)N)[C@@H](C)CC)[C@@H](C)CC)C(=O)N[C@@H](Cc1c[nH]c2ccccc12)C(=O)N[C@@H](Cc1c[nH]c2ccccc12)C(=O)N[C@@H](CCCCN)C(N)=O	broth microdilution	18		1.25 µg/mL
